Measured values of several laboratories.
Each numbered part is a random draw from the data of one study; scales do not carry over between parts. Positions count from the first letter of the parent shown.

Set 1 — method: DHFR PCA, deep sequencing; sample: yeast; with: (+)-ABA 4.8 µM; baseline: wild-type fitted maximum; direction: higher = stronger binding; measurement: relative binding score
Target: ABI1, truncated, D143A, DHFR fusion (Arabidopsis thaliana)
Setting: methotrexate growth selection, single substitutions
Starting sequence: PYL1, truncated, DHFR fusion (Arabidopsis thaliana); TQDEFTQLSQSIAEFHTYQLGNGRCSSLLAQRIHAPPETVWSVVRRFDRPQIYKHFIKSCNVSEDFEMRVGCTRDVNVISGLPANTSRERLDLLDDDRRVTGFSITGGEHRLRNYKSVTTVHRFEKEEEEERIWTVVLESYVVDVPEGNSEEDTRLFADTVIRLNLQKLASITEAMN; partner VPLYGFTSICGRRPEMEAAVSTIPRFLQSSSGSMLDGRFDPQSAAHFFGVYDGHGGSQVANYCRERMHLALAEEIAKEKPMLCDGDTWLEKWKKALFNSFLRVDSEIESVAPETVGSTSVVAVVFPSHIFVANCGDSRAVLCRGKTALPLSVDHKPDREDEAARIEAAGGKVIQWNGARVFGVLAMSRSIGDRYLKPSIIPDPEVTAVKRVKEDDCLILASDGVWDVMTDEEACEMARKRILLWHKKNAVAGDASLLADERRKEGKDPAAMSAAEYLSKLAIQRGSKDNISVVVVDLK
D159L: -9.88%
V143N: -6.1%
H34D: 78%
E128G: 95.3%
N61S: 81.5%
P146G: 12.6%
L29H: 70.4%
W134Y: 93.4%

Set 2 — method: protein-binding microarray; form: double-stranded DNA, one strand shown; sample: in vitro; tested at: 250 nM; setting: 60-bp whole probe; with: salmon DNA 0.4 mg/ml; baseline: random background probes; direction: higher = stronger binding; measurement: log fluorescence; shared flanks, not repeated: GCCTAGCAC … GTCTTGATTCGCTTGACGCTGCTG
Target: Interferon regulatory factor 7, full length, phosphomimetic (IRF7, Homo sapiens, UniProt Q92985, residues 1-503, S101K/S471D/S472D/S475D/S476D/S477D/S483D/S484D/S487D)
Target sequence (chain): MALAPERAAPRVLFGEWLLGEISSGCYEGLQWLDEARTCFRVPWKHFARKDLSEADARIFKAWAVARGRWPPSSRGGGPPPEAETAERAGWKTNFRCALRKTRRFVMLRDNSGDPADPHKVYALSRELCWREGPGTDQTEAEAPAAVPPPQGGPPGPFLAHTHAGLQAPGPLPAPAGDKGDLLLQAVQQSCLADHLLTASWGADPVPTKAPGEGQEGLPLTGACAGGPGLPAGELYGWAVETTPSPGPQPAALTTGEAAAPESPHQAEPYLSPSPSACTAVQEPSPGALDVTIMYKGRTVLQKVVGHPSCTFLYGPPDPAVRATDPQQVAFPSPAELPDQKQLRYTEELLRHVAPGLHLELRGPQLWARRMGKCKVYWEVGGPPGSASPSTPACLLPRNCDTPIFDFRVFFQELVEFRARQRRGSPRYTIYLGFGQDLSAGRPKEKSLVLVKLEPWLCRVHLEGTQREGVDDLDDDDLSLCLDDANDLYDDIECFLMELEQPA
TTAGGTTTCCTTTCCCTTTGGTGCTAG: 4.62 z-score
GACGATCTCAGAATCGAGACGTGCTAG: 0.215 z-score
CAGTTAATGAAAATTCTAATTGTGCTA: 0.349 z-score
GACGGTATCGGGACTGGGGGCGTGCTA: 0.844 z-score
TTAGGTCTAGGTTTCGGTTAGTGCTAG: 7.56 z-score
CTGAGATGCATTCTGGGCCCGTGCTAG: -0.46 z-score
TTTGGACTGGACTATCGGTTAGTGCTA: -0.739 z-score
TTAGGTTTCGGGCTCGGTTAGTGCTAG: 4.15 z-score

Set 3 — target: CCND1, cyclin fold, Cln2 fusion (human); method: yeast growth competition, sequencing; sample: yeast; setting: weak parent motif; baseline: not given; direction: higher = stronger binding; measurement: normalised enrichment score
Starting sequence: PPP1R3F docking peptide (human); VAPRRVLFADEAL
F8A: -0.0998
F8L: 0.177
R4A: 0.876
E11A: 0.318
V6A: -0.0992
L7A: 0.264

Single results of other studies
PhoQ, residues 284 288 289 292 302 303 TNSAEL  fold induction (PhoP, residues 12 14 15 18 19 NNFVT (Escherichia coli, UniProt P23836); Sort-seq, item: YFP reporter; E. coli; PhoQ-PhoP variant library, with: 10 µM Mg2+; baseline: high Mg2+ state, higher = stronger signaling): 1.77

Some of these lines once more (set 2):
CAGTTAATGAAAATTCTAATTGTGCTA: 0.349 z-score
GACGGTATCGGGACTGGGGGCGTGCTA: 0.844 z-score
